Measured values collected from several papers.
POLQ ATPase domain: DNA polymerase theta, ATPase domain (POLQ, Homo sapiens, UniProt O75417)
Chain of UniProt O75417 (whole entry, unmodified, looked up): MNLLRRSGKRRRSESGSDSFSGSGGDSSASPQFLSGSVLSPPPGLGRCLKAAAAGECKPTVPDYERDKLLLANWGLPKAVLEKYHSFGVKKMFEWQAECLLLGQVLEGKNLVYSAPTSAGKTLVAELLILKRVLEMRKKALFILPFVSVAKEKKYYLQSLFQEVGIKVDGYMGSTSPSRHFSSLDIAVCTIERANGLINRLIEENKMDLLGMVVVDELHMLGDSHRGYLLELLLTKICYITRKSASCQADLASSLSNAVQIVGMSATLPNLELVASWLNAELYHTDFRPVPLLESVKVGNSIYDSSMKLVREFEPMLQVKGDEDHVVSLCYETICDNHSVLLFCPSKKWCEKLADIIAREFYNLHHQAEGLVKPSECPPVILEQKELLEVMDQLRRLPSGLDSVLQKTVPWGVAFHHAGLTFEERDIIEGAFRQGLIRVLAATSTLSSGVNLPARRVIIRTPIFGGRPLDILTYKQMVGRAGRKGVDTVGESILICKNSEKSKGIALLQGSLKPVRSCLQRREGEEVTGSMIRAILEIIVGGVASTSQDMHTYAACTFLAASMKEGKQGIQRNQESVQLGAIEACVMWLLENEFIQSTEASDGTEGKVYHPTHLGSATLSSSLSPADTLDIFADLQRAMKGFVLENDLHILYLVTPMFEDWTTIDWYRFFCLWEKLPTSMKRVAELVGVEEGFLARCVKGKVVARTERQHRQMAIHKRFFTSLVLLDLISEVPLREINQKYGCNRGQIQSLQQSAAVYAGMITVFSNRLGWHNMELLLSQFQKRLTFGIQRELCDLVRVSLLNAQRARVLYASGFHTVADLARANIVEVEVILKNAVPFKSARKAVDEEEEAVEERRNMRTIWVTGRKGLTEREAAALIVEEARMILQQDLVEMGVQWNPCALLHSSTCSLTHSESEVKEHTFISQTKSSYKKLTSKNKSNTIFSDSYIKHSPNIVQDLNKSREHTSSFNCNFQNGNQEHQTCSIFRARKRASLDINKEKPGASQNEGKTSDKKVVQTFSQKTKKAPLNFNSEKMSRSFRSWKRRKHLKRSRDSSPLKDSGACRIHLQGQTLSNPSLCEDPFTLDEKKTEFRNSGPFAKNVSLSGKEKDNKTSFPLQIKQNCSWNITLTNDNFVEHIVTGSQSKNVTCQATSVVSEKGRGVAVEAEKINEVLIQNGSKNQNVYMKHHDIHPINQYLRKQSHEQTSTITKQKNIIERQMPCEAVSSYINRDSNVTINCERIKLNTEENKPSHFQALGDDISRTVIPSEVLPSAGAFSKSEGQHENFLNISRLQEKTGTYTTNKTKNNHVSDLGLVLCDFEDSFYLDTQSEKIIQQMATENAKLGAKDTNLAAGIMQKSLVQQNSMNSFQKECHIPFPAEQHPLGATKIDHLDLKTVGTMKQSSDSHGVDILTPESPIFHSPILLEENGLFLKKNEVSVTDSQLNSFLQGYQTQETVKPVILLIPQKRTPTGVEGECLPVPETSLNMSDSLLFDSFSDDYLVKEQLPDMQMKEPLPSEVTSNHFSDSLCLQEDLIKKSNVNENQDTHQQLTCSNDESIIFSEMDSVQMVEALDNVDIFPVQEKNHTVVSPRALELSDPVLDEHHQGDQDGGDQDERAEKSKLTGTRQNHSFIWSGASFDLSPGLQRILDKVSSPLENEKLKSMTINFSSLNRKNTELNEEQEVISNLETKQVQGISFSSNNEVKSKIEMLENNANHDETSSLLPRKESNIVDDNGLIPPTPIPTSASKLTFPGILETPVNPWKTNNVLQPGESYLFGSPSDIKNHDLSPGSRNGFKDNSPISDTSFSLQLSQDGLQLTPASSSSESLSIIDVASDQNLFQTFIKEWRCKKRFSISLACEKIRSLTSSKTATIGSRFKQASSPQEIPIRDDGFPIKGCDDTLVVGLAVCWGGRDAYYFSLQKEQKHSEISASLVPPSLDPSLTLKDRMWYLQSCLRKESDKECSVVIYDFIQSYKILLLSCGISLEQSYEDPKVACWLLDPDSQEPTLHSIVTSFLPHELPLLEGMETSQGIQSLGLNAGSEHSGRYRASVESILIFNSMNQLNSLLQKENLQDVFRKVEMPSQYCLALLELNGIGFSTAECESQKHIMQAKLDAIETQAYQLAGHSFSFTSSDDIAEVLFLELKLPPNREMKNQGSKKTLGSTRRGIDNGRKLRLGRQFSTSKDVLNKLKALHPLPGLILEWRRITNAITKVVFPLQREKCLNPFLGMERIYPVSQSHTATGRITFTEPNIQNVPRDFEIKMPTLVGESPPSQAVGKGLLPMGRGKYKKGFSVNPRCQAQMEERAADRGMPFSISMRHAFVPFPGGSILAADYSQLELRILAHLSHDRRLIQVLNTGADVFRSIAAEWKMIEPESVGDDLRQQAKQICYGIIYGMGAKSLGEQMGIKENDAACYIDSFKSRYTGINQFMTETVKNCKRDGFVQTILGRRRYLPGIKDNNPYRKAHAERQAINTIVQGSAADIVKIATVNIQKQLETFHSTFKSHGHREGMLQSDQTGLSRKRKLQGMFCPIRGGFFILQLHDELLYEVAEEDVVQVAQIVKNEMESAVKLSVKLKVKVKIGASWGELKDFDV
Chain of UniProt Q13976 (whole entry, looked up): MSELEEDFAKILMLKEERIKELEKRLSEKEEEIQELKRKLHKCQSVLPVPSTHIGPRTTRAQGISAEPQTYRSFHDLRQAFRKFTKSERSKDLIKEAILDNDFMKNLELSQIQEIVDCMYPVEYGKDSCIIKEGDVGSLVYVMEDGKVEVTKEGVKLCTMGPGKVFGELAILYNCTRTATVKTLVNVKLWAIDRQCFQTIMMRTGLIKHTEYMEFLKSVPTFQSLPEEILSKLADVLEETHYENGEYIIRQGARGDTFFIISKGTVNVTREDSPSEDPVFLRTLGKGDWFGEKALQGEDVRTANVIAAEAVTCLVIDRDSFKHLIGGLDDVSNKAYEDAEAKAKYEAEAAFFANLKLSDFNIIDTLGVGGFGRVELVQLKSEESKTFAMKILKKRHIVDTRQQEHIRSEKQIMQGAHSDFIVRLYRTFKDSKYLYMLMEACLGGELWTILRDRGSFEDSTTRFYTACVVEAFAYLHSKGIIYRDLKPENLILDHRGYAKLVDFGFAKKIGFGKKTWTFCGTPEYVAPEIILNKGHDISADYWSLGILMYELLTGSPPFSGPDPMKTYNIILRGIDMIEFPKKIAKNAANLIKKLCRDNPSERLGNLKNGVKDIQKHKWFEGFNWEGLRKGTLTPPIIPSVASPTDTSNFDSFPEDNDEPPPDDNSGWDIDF

Structure (SMILES)	tested on	assay	test system	conditions	scale	endpoint	value
CCn1cc(C(=O)O)c(=O)c2cc3c(cc21)OCO3	mouse MPNST tumor cells	high-content immunofluorescence imaging, measured: nuclear SOX9		10 µM, 12 h, mean of 2 replicates	reference: DMSO control, higher = more nuclear SOX9	nuclear SOX9 intensity	118 % of DMSO
CCNCC(O)c1cccc(O)c1 (centres unmarked)	A-375			100 µM, 18 h		viability	84.3%
COC1=CC=C2C3Cc4ccc(OC)c5c4C2(CCN3C)C1O5 (centres unmarked)			mouse, microsomes or S9	2 µM, 0.5 h		remaining compound	36.7%
O=c1[nH]c2ccccc2n1C1CCN(Cc2ccc(-c3[nH]c4cc5ncnc5cc4nc3-c3ccccc3)cc2)CC1	cGMP-dependent protein kinase 1 (PRKG1, Homo sapiens, UniProt Q13976)	enzyme activity, inhibitor		0.5 µM	reference: control	remaining activity	103%
C=C1C/C(=C/C)C(=O)O[C@@H]2CCN3CC=C(COC(=O)[C@]1(C)O)[C@H]23	POLQ ATPase domain	enzyme activity, inhibitor		77 µM		remaining activity	101%
C[C@]12CC[C@H](O)C[C@H]1CC[C@@H]1[C@@H]2C[C@@H](O)[C@]2(C)[C@@H](C3=CC(=O)OC3)CC[C@]12O	mouse MPNST tumor cells	high-content immunofluorescence imaging, measured: nuclear SOX9		10 µM, 12 h, mean of 2 replicates	reference: DMSO control, higher = more nuclear SOX9	nuclear SOX9 intensity	87.5 % of DMSO
CCCN(CCC)[C@H]1CCc2c(F)ccc(O)c2C1	POLQ ATPase domain	enzyme activity, inhibitor		77 µM		remaining activity	99.9%
O=C1N=C(O)N=C(O)C1C1c2ccccc2Oc2nc(O)nc(O)c21 (centres unmarked)			mouse, microsomes or S9	2 µM, 0.5 h		remaining compound	93.3%
